Measured values collected from several papers.
Compare with care: the assays were run in different laboratories. Values joined by “and” are separate records of one study, mostly repeats; a detail may differ. Numbers after ± are the reported error.
UniProt Q8TDC3, sequence (whole entry, looked up): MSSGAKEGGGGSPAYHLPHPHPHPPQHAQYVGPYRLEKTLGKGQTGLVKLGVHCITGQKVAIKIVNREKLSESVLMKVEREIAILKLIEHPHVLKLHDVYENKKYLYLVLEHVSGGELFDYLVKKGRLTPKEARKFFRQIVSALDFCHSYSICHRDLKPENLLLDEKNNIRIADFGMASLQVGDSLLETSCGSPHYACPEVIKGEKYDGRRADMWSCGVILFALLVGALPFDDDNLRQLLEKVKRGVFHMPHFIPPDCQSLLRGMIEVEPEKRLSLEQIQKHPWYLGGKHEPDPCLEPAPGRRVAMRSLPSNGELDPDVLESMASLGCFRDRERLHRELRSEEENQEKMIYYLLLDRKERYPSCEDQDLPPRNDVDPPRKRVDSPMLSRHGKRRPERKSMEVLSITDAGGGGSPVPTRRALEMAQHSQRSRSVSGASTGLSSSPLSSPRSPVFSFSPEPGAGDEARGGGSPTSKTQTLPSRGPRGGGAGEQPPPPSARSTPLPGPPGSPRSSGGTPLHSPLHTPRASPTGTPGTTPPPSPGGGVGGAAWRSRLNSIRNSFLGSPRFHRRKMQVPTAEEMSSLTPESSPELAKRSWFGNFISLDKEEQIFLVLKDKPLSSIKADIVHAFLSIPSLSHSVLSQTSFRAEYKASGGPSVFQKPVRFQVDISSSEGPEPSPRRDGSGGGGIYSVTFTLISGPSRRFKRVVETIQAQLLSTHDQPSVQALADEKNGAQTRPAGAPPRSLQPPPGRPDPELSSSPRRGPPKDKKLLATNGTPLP

For `CC[C@H](C)[C@@H]1NC(=O)[C@H](Cc2ccccc2)NC(=O)[C@H](C)NC(=O)[C@@H](NC(=O)[C@@H](NC(=O)[C@H](CO)NC(=O)[C@@H](N)Cc2ccc(O)cc2)[C@@H](C)O)CSC(=O)[C@H](CCSC)NC1=O`, inhibition read “no inhibition” (AgrC-I/AgrA phosphotransfer, Staphylococcus aureus; phosphotransfer; reconstituted in nanodiscs; concentration not given).
The ΔTm of `Cc1cc(C(=O)Nc2nc3cccc(C)c3n2[C@H]2CCCCN(C(=O)/C=C/CN(C)C)C2)ccn1` is reported as 12.6 °C and 12.7 °C (Trypanosoma brucei CLK1 wild type; thermal stability, differential scanning fluorimetry; reference: DMSO).
`CC(C)(C)C(=O)OCOP(=O)(OCOC(=O)C(C)(C)C)C1CCCN(O)C1=O` (stereo not shown) gave a log LC50 of > -4 log M (T47D).
`O=C1NC2(CC2)COc2ncc(F)cc2[C@H]2COCCN2c2ccn3ncc1c3n2`: “serum total protein” 61.6 ± 2.6 g/L (Sprague-Dawley rat, female, serum; oral, 20 mg/kg/day, end of treatment, 4-week subacute toxicity).
For `COc1ccccc1-c1n[nH]c2nc(NC3CCN(C(=O)Cc4ccc(F)cc4F)CC3)ncc12`, the relative abundance was 0.89 (LMJF.25.1180; bead binding competition; Leishmania donovani extract; 10 µM; reference: vehicle).
With `CC[C@@H]1CN2CCc3c([nH]c4cccc(OC)c34)[C@@H]2C[C@@H]1/C(=C\OC)C(=O)OC` the IC50 was 0.8 µg/mL (rabbit anti-mitragynine polyclonal IgG; antigen binding, competitor, competitive indirect ELISA; 15% methanol; 60 min antibody-standard, 90 min antibody-antigen incubation).
The IC50 of `CCc1nn(C)c2nc(-c3ccc(C(=O)O)cc3)nc(NCc3ccccc3)c12` is reported as 1500 nM (PDE4, guinea pig; inhibitor; heart).
With `CCN(CC)CCO.O=C(O)C(Cl)Cl` the herbicidal inhibition was 47% (Eleusine indica; 15 mg/mL, 21 days, post-emergence, greenhouse).
`Nc1ncc(-c2cc(-c3cnn(CC(F)(F)F)c3)ncc2F)nc1C(=O)NC1CNCC(F)C1` (stereo not shown) gave a remaining binding of 100% (ABL1(F317I)-nonphosphorylated; KINOMEscan competition binding; 1 µM; reference: DMSO control).
The tumour uptake of `CC[C@H](C)[C@H](NC(=O)[C@H](CO)NC(=O)[C@H](Cc1ccc(O)cc1)NC(=O)[C@H](Cc1ccc(O)cc1)NC(=O)[C@H](CC(N)=O)NC(=O)CNC(=O)[C@H](CO)NC(=O)[C@H](Cc1ccc(O)cc1)NC(=O)[C@H](CO)NC(=O)[C@H](CO)NC(=O)[C@H](CC(N)=O)NC(=O)COCCOCCNC(=O)CN1CCN(CC(=O)O)CCN(CC(=O)O)CCN(CC(=O)O)CC1)C(=O)N[C@@H](CC(C)C)C(N)=O` [copper-64 labelled] is reported as 12.1 %ID/mL (dynamic PET; mouse, tamoxifen-induced PDAC, tumor; intravenous, 0.1 µg/mouse, 8.5 min).
Under “PML protein level”, `C[C@@H]1NC(=O)[C@H](CCCNC(=N)N)NC(=O)[C@H](Cc2ccc3ccccc3c2)NC(=O)[C@H]2CCCCN2C(=O)[C@@H]([C@H](C)OP(=O)(O)O)NC(=O)CN(C)C(=O)[C@@H](C)NC(=O)c2cc3cc(c2)C(=O)NC[C@H](NC(=O)[C@@H](C)NC1=O)C(=O)N[C@@H](Cc1ccccc1)C(=O)N[C@@H](Cc1ccc2ccccc2c1)C(=O)N[C@@H](CCCNC(=N)N)C(=O)N[C@@H](CCCNC(=N)N)C(=O)N[C@@H](CCCNC(=N)N)C(=O)N[C@@H](CCCNC(=N)N)C(=O)N[C@H](C(=O)N[C@@H](CCCCN)C(N)=O)CNC3=O` is recorded as 3.1 fold (Pin1 human; inhibitor, Western blot; HeLa; 5 µM; reference: untreated).
`CC(C)[C@H]1NC(=O)C[C@H]2/C=C/CCSSC[C@@H](NC1=O)C(=O)N[C@H](Cc1cccc3ccccc13)C(=O)NCC(=O)O2` gave an inhibition of -2.1% (BRSK1 (Homo sapiens, UniProt Q8TDC3); enzyme activity, inhibitor; 10 µM).
For `COc1ccccc1-c1n[nH]c2nc(N[C@H]3CC[C@H](NS(=O)(=O)CC(C)C)CC3)ncc12`, “relative captured amount” read 0.55 (CYC6 LINJ.32.3520; bead competition pull-down; Leishmania extract; 10 µM; reference: vehicle).
`CSCC[C@H](NC(=O)CNC(=O)[C@H](CCSC)NC(=O)[C@H](CS)NC(=O)[C@@H](N)CS)C(=O)N[C@@H](CS)C(=O)NCC(=O)N[C@@H](CCCCN)C(=O)O`: p38/β-actin ratio “decreased” (p38 MAPK (mouse); Western blot; RAW264.7; 0.1 and 1 µg/mL).
`CCCCCCCCCCCC(=O)C(C)C(=O)N1CCC[C@H]1C(=O)NC(C)(C)C(=O)NC(C)(C)C(=O)NC(C)(C)C(=O)N[C@](C)(CC)C(=O)NCCC(=O)N[C@@H](C)C(=O)N[C@](C)(CC)C(=O)N[C@@H](C)C(=O)N[C@@H](CC(C)C)C(=O)N[C@](C)(CC)C(=O)NCCC(=O)N[C@@H](C)C(=O)N[C@](C)(CC)C(=O)NCCC(=O)N[C@@H](C)C(=O)NC(C)(C)C(=O)NC(C)(C)C(=O)NC(C)(C)C(=O)N[C@@H](C)C(=O)N[C@@H](CC(=O)O)C(=O)O` (stereo partly shown): “bound compound (MS peak area)” 0 a.u. (chitin; pull-down, LC-MS; 1 h, pH 7.0, 30 °C, with: chitin 1 mg/mL; higher = more bound).
`Cc1ccc2c(n1)c(-c1cccc(S(C)(=O)=O)c1)c(C)n2C/C(F)=C/CN` gave an inhibition of 5% (AMPA receptor (rat); radioligand binding; 10 µM, rat).

Some of these lines once more:
`CC(C)(C)C(=O)OCOP(=O)(OCOC(=O)C(C)(C)C)C1CCCN(O)C1=O` (stereo not shown) gave a log LC50 of > -4 log M (T47D).
`O=C1NC2(CC2)COc2ncc(F)cc2[C@H]2COCCN2c2ccn3ncc1c3n2`: “serum total protein” 61.6 ± 2.6 g/L (Sprague-Dawley rat, female, serum; oral, 20 mg/kg/day, end of treatment, 4-week subacute toxicity).
For `COc1ccccc1-c1n[nH]c2nc(NC3CCN(C(=O)Cc4ccc(F)cc4F)CC3)ncc12`, the relative abundance was 0.89 (LMJF.25.1180; bead binding competition; Leishmania donovani extract; 10 µM; reference: vehicle).
